# Assay results pooled from the literature.
# Each line is one published result; not all experiments were run side by side. ± marks the error that the study gave.
SMILES,assay,test system,conditions,scale,Cmax
CN1CC[C@@]23CCCC[C@@H]2[C@@H]1Cc1ccc(O)cc13,,"Wistar rat, both sexes, plasma","oral, 5 mg/kg DEM, DEM 2 h after pretreatment, added: QN 2.5 mg/kg single pretreatment",,22.1 ± 6.01 ng/mL
CCCC(=O)OCSc1ccccc1C(=O)NCCC(N)=O,,"Sprague-Dawley rat, male, plasma","oral, 1000 mg/kg",,38.2 ± 50 ng/mL
NC1(c2ccccc2Cl)CCCCC1=O (racemic),,"male Wistar rats, plasma","intraperitoneal, 40 mg/kg once daily for 14 days, day 14",,2050 ± 678 ng/mL
C[C@H]1CNCCc2ccc(Cl)cc21,,"male Sprague-Dawley rat, plasma","subcutaneous, pimavanserin 1 + lorcaserin 1 mg/kg, pimavanserin 15 min earlier",,26.6 ± 1.69 ng/mL
Cc1cccc(C)c1OCC(=O)N[C@@H](Cc1ccccc1)[C@@H](O)C[C@H](Cc1ccccc1)NC(=O)[C@H](C(C)C)N1CCCNC1=O,,"male Sprague-Dawley rats, plasma","oral, 160 mg/kg, added: QPD 6 g/kg oral, 30 min before",,1190 ng/mL
COc1ccc2c(c1)[C@]13CCCC[C@@H]1[C@H](C2)N(C)CC3,refers to: HHMA,"rat, plasma","intraperitoneal, 30 mg/kg, three doses, added: MDMA 20 mg/kg oral",relative to: MDMA with saline,decreased
CNC(=O)c1ccc(-c2cnn3ccc(C(=O)N(C)c4ccc(Cl)c(C(=O)OC)c4)cc23)cc1,,"Wistar rat, both sexes, plasma","oral, 50 mg/kg/day, day 14",,1.02 ng/mL
CCCCCCCCCC(=O)N[C@@H](Cc1c[nH]c2ccccc12)C(=O)N[C@H](CC(N)=O)C(=O)N[C@@H](CC(=O)O)C(=O)N[C@@H]1C(=O)NCC(=O)N[C@@H](CCCN)C(=O)N[C@@H](CC(=O)O)C(=O)N[C@H](C)C(=O)N[C@@H](CC(=O)O)C(=O)NCC(=O)N[C@H](CO)C(=O)N[C@@H]([C@H](C)CC(=O)O)C(=O)N[C@@H](CC(=O)c2ccccc2N)C(=O)O[C@@H]1C,HPLC-UV,"male Wistar rat, skin tissue of head","subcutaneous, 50 mg/kg, single dose",,20100 ± 2200 ng/mL

# A few entries again:
SMILES,assay,test system,conditions,scale,Cmax
CCCCCCCCCC(=O)N[C@@H](Cc1c[nH]c2ccccc12)C(=O)N[C@H](CC(N)=O)C(=O)N[C@@H](CC(=O)O)C(=O)N[C@@H]1C(=O)NCC(=O)N[C@@H](CCCN)C(=O)N[C@@H](CC(=O)O)C(=O)N[C@H](C)C(=O)N[C@@H](CC(=O)O)C(=O)NCC(=O)N[C@H](CO)C(=O)N[C@@H]([C@H](C)CC(=O)O)C(=O)N[C@@H](CC(=O)c2ccccc2N)C(=O)O[C@@H]1C,HPLC-UV,"male Wistar rat, skin tissue of head","subcutaneous, 50 mg/kg, single dose",,20100 ± 2200 ng/mL
